Assay results from different studies.
Each line is one published result; not all experiments were run side by side. ± marks the error that the study gave.

Compound	test	system	conditions	AUC(0-inf)
C[C@@H](Cn1ccc(-c2ccc(C#N)c(Cl)c2)n1)NC(=O)c1cc([C@@H](C)O)[nH]n1		healthy male human, plasma	intravenous infusion, 100 µg 14C-labelled, 15 min infusion, microtracer, geometric mean	3560 h·pg eq/mL
Cn1c(=O)oc2ccc(-c3ccc(C[C@@H](C#N)NC(=O)[C@@H]4CNCCCO4)cc3)cc21		human, mild renal impairment, plasma	oral, 25 mg single dose, mean	3610 ng·h/mL
N[C@@H]1c2cccnc2[C@H](OC(=O)N2CCC(n3c(=O)[nH]c4ncccc43)CC2)CC[C@H]1c1cccc(F)c1F		human, plasma	oral, dose not given, single dose, geometric LS mean, with: fluconazole	9270 ng·h/mL
C=CC(=O)NC1CCN(c2ncc3ncnc(Nc4ccc(Oc5ccc6c(c5)ncn6C)c(C)c4)c3n2)CC1		human, male	oral, 30 mg, fasted, spray-dried dispersion, geometric mean	5.98 µM·h
C[C@@H](N)c1cc(Cl)ccc1Cn1c(=S)[nH]c(=O)c2[nH]ccc21		human, both sexes, matched healthy controls, plasma	oral, 2.5 mg single dose, geometric mean	0.291 µM·h
CCc1nc2c(C)cc(N3CCN(CC(=O)N4CC(O)C4)CC3)cn2c1N(C)c1nc(-c2ccc(F)cc2)c(C#N)s1		healthy human volunteers, plasma	oral, 150 mg	9000 ng·h/mL
CCN1CCN(Cc2ccc(Nc3ncc(F)c(-c4cc(F)c5nc(C)n(C(C)C)c5c4)n3)nc2)CC1		fasted healthy human subjects, plasma	oral, 150 mg, 3 × 50 mg capsule	3130 ng·h/mL
NC[C@@]1(CC(=O)O)[C@@H]2CC[C@H]3C[C@@H]2[C@@H]1C3		human, moderately renal impairment, plasma	dose not given, geometric least squares mean	3920 ng·h/mL
CN(CC#N)C(=O)C[C@H](Nc1nc2ccccc2[nH]1)c1cccc(C(F)(F)F)c1		human	intravenous infusion, 1.5 mg/kg, 1 mg/mL formulation	7330 ± 1580 ng·h/mL
Cn1cncc1[C@@](N)(c1ccc(Cl)cc1)c1ccc2c(c1)c(-c1cccc(Cl)c1)cc(=O)n2C		healthy human subjects, plasma	oral, 100 mg, fed (high-fat meal)	1240 ng·h/mL
C[C@@H](Oc1ccc(S(C)(=O)=O)cc1C(=O)N1C[C@@H]2C[C@]2(c2cc(C(F)(F)F)on2)C1)C(F)(F)F		elderly humans, plasma	oral, 25 mg once daily, single dose, geometric mean	11.7 µM·h
NC(CO)(CO)CCc1ccc(Sc2cccc(OCc3ccccc3)c2)cc1Cl		human male, whole blood	oral, 3 mg, with: cyclosporin 100 mg b.i.d.	145 ng·h/mL
C[C@H]1CN(C(=O)CC#N)[C@]12CCN(c1ncnc3[nH]ccc13)C2		healthy human, plasma	oral, 3 mg single, median	61.5 ng·h/mL
Cn1cncc1[C@@](N)(c1ccc(Cl)cc1)c1ccc2c(c1)c(-c1cccc(Cl)c1)cc(=O)n2C		human, acute leukaemia, plasma	200 mg/m^2, estimated from steady-state AUC(0-12h)	4220 ng·h/mL
O=C(O)CCC(=O)O.[2H]C([2H])([2H])Oc1cc(C)c2[nH]ccc2c1CN1CC[C@@H](C2CC2)C[C@H]1c1ccc(C(=O)O)cc1	LC-MS/MS, geometric mean	human, plasma	400 mg, single dose, fasting	151000 ng·h/mL
CN(C)C(=O)c1cc2cnc(Nc3ccc(N4CCNCC4)cn3)nc2n1C1CCCC1		human, end-stage renal disease, plasma	oral, 400 mg, single dose, geometric mean	13600 ng·h/mL
CN1C(=O)[C@@H](NC(=O)c2nnc(Cc3ccccc3)[nH]2)COc2cccnc21		healthy human, fasted, plasma	oral, 200 mg single dose, geometric mean	32100 ng·h/mL
C#C[C@]1(CO)O[C@@H](n2cnc3c(N)nc(F)nc32)C[C@@H]1O		human, plasma	oral, 30 mg, single dose, geometric mean	3.84 µM·h
C=CC(=O)N(C)CCOc1c(N)ncnc1-c1cc(F)cc(NC(=O)c2ccc(C3CC3)cc2F)c1C		human, whole blood	oral, 15 mg, single ascending dose	41.3 ng·h/mL
FC(F)(F)c1ccc(CNc2ccc(Cc3c[nH]c4ncc(Cl)cc34)cn2)cn1	item: total radioactivity	healthy human male, plasma	oral, 400 mg [14C]-labelled	163000 ng·h/mL
Cc1cc(C)c(CNC(=O)c2cc(Cl)c3c(c2C)O[C@@](C)([C@H]2CC[C@H](N(C)C)CC2)O3)c(=O)[nH]1		healthy male human, plasma	oral, 25 mg, alone, before itraconazole	804 ng·h/mL
CCn1cc(C(=O)N2CCOCC2)c(=O)c2cc(NC3Cc4ccccc4C3)cnc21		human, fasted	oral suspension, 2000 mg single dose, arithmetic mean	5750 ng·h/mL

A few entries again:
Compound	test	system	conditions	AUC(0-inf)
NC[C@@]1(CC(=O)O)[C@@H]2CC[C@H]3C[C@@H]2[C@@H]1C3		human, moderately renal impairment, plasma	dose not given, geometric least squares mean	3920 ng·h/mL
CN(CC#N)C(=O)C[C@H](Nc1nc2ccccc2[nH]1)c1cccc(C(F)(F)F)c1		human	intravenous infusion, 1.5 mg/kg, 1 mg/mL formulation	7330 ± 1580 ng·h/mL
